Measured values from different studies.
Compare with care: the assays were run in different laboratories. ± gives the spread as reported.

COc1cc(CNC(=O)C[C@H](C)CCC=C(C)C)ccc1OCc1cn(-c2ccccc2F)nn1 — growth (HL-60(TB); SRB; 10 µM, 48 h): 91.5%
Cc1sc2c(c1C)C(c1ccc(Cl)cc1)=N[C@H](CC(=O)OC(C)(C)C)c1nnc(C)n1-2 — mRNA level (NMC-797; qRT-PCR, refers to: Rad21 and Ran; 250 nM, 48 h): no effect
COc1cc(CNC(=O)C[C@H](C)CCC=C(C)C)ccc1O — growth (HL-60(TB); SRB; 10 µM, 48 h): 76.4%
CC[C@H](C)[C@H](NC(=O)[C@H](CCCCN)NC(=O)[C@H](CCCCN)NC(=O)[C@H](C)NC(=O)[C@@H](NC(=O)[C@H](C)NC(=O)[C@H](CC(C)C)NC(=O)[C@H](CC(C)C)NC(=O)[C@H](C)NC(=O)[C@H](CCCCN)NC(=O)[C@H](CC(C)C)NC(=O)[C@H](CC(N)=O)NC(=O)[C@@H](N)CC(C)C)C(C)C)C(=O)N[C@@H](CC(C)C)C(N)=O — IC50 (HMEC-1; cell growth or viability, MTT; 24 h): 57.1 µM
COC[C@@H](NC(C)=O)C(=O)NCc1ccc(N=[N+]=[N-])cc1 — fraction slow-inactivated channels (CAD; whole-cell patch clamp; 100 µM, at -50 mV): 0.68 ± 0.07
CC(=O)OC[C@H]1O[C@@H](Sc2sc(C(=O)c3ccc(C)cc3)c(N)c2-c2nc3ccccc3s2)[C@H](OC(C)=O)[C@@H](OC(C)=O)[C@H]1OC(C)=O — growth (HL-60(TB); 10 µM, 48 h): 82.7%
CC[C@H](C)[C@H](NC(=O)[C@H](C)NC(=O)CNC(=O)[C@H](CCCCN)NC(=O)[C@H](CC(N)=O)NC(=O)[C@H](CO)NC(=O)CN)C(=O)N[C@H](C(=O)NCC(=O)N[C@@H](CC(C)C)C(=O)N[C@@H](CCSC)C(=O)O)[C@@H](C)CC — cell survival (rat primary cortical neurons; 10 µM; reference: control): 54.6%
COc1cc(CNC(=O)C[C@H](C)CCC=C(C)C)ccc1OCc1cn(-c2cccc([N+](=O)[O-])c2)nn1 — growth (HL-60(TB); SRB; 10 µM, 48 h): 100%
COc1ccc(-n2cc(C(=O)N3C[C@]4(OC(=O)c5ccccc5NC(C)=O)CC[C@H](OC)[C@@]56[C@@H]4C[C@@H]([C@@H]35)[C@@]3(O)C[C@H](OC)[C@H]4C[C@@H]6[C@]3(O)[C@H]4OC)nn2)cc1 — p-p65/p65 ratio (RAW264.7; western blot; 30, 60 or 120 µM, 24 h, together with: LPS 1 µg/mL): decreased
CC/C=C\C/C=C\C/C=C\C/C=C\C/C=C\C/C=C\CCC(=O)Nc1ccn(C2OC(CO)C(O)C2(F)F)c(=O)n1 (stereo not shown) — GI50 (HL-60(TB)): 0.029 µM
CC(=O)OC[C@H]1O[C@@H](Sc2sc(C(=O)c3ccc(Br)cc3)c(N)c2-c2nc3ccccc3s2)[C@H](OC(C)=O)[C@@H](OC(C)=O)[C@@H]1OC(C)=O — growth (HL-60(TB); 10 µM, 48 h): 113%
C=CCc1cc2c(c(OC)c1OC)OCO2 — GI50 (DU-145; cell growth or viability, MTT; 72 h): > 250 µM
COc1cc(CNC(=O)C[C@H](C)CCC=C(C)C)ccc1OCc1cn(-c2ccccc2[N+](=O)[O-])nn1 — growth (HL-60(TB); SRB; 10 µM, 48 h): 47.7%

Some of these lines once more:
COc1cc(CNC(=O)C[C@H](C)CCC=C(C)C)ccc1OCc1cn(-c2cccc([N+](=O)[O-])c2)nn1 — growth (HL-60(TB); SRB; 10 µM, 48 h): 100%
